Published values pooled from the literature.
Lines come from different studies, so protocols differ. Several values in a cell are separate wells, animals, samples, runs or records. ± marks the error that the study gave.

Cc1ccc(NC(=O)c2ccc(CN3CCN(C)CC3)cc2)cc1Nc1nccc(-c2cncc(-c3oncc3C)c2)n1
half-life (older healthy human adults, plasma; oral, 37.5 mg single dose, fed, mean): 24.4 h

Cc1[nH]c(/C=C2\C(=O)Nc3ccccc32)c(C)c1CCC(=O)O
half-life (human patients; oral, 200 mg/m^2 twice daily, after meal, dose 55): 3.45 ± 0.983 h

CN1C(=O)[C@@H](NC(=O)c2nnc(Cc3ccccc3)[nH]2)COc2ccccc21
half-life (human male, plasma; oral, 60 mg twice daily, day 1): 1.74 h

C[C@H]1CNCCCN1S(=O)(=O)c1cccc2cncc(F)c12
half-life (human, male, plasma; ocular instillation, 1 drop per eye twice daily, day 8, together with: brimonidine fixed-dose combination): 0.325 h

C/C=C1\NC(=O)[C@H]2CSSCC/C=C/[C@H](CC(=O)N[C@H](C(C)C)C(=O)N2)OC(=O)[C@H](C(C)C)NC1=O
half-life (human, plasma; i.v., 8 mg/m^2): 13.4 ± 4.5 h

CS(=O)(=O)CCNCc1ccc(-c2ccc3ncnc(Nc4ccc(OCc5cccc(F)c5)c(Cl)c4)c3c2)o1
half-life (human, plasma; oral, multiple dose): 16.6 h

O=c1[nH]c(=O)c(Cc2cccc(C(F)(F)F)c2)c([C@H]2CC[C@H](c3ccccc3)CC2)[nH]1
half-life (human, fasted, plasma; oral, 300 mg single dose, geometric mean): 21.2 h

CCN(CC)CCNC(=O)c1c(C)[nH]c(/C=C2\C(=O)Nc3ccc(F)cc32)c1C
half-life (human, cancer patients on efavirenz, plasma; oral, 50 mg/day): 71.1 ± 33.5 h

N#Cc1ccc(COc2cccc(C3CCN(Cc4nc5ccc(C(=O)O)cc5n4C[C@@H]4CCO4)CC3)n2)c(F)c1
half-life (human, plasma; oral): 4.3 to 6.1 h

COC(=O)c1ccc2c(c1)NC(=O)/C2=C(\Nc1ccc(N(C)C(=O)CN2CCN(C)CC2)cc1)c1ccccc1
half-life (healthy human controls matched to Child-Pugh B, plasma; oral, 100 mg single dose, geometric mean): 32.1 h

O=CC[C@@H](O)[C@H](O)[C@H](O)CO
half-life (HPLC-fluorescence; human patients, plasma; oral, 60 mg/kg/day, cycle 2): 6.1 ± 3.9 h

O=C(/C=C/c1cccc(S(=O)(=O)Nc2ccccc2)c1)NO
half-life (human mild liver dysfunction, plasma; intravenous, 400 mg/m^2, 30 min infusion, cycle 1 day -7): 2.12 h

CCCCC1(CCCC)CN(c2ccccc2)c2cc(SC)c(OCC(=O)N[C@@H](C(=O)NCC(=O)O)c3ccccc3)cc2S(=O)(=O)C1
half-life (LC-MS/MS; human, plasma; oral, 15 mg, single dose, before breakfast): 2.98 h

CS(=O)(=O)n1cc2c(n1)CN([C@H]1CO[C@H](c3cc(F)ccc3F)[C@@H](N)C1)C2
half-life (healthy male human, plasma; oral, 200 mg single, fasted, geometric mean): 45.2 h

CO[C@H]1C[C@@H]2CC[C@@H](C)[C@@](O)(O2)C(=O)C(=O)N2CCCC[C@H]2C(=O)O[C@H]([C@H](C)C[C@@H]2CC[C@@H](OCCO)[C@H](OC)C2)CC(=O)[C@H](C)/C=C(\C)[C@@H](O)[C@@H](OC)C(=O)[C@H](C)C[C@H](C)/C=C/C=C/C=C/1C
half-life (human, plasma; oral, 30 mg, together with: sunitinib 50 mg daily): 17.2 h

Cc1ccc(NC(=O)c2ccc(CN3CCNCC3)cc2)cc1Nc1nccc(-c2cccnc2)n1
half-life (human, plasma; 400 mg/day imatinib, day 14 of cycle 1, metabolite of imatinib, mean, together with: IL-2 6 MIU/day days 10-14): 32.5 h

COC(=O)[C@H](c1ccccc1Cl)N1CCC(S)/C(=C\C(=O)O)C1 (stereo partly shown)
half-life (human patients, CYP3A4 wt/wt, plasma; 75 mg clopidogrel daily, day 7, median): 0.52 h

CCOc1ccc(Cc2cc([C@]34OC[C@](CO)(O3)[C@@H](O)[C@H](O)[C@H]4O)ccc2Cl)cc1
half-life (human, type 2 diabetes, severe renal impairment, plasma; oral, 15 mg): 24.2 ± 6 h

O=C(CCCCCCC(=O)Nc1ccccc1)NO
half-life (human patients, serum; oral, 1700 mg once daily): 11.1 h

CNC(=O)c1ccc(-c2cnc3ncc(Cc4ccc5ncccc5c4)n3n2)cc1F
half-life (healthy human subjects, plasma; oral, 400 mg, arithmetic mean, alone): 11.2 h

CO[C@H]1C[C@@H]2CC[C@@H](C)[C@@](O)(O2)C(=O)C(=O)N2CCCC[C@H]2C(=O)O[C@H]([C@H](C)C[C@@H]2CC[C@@H](O)[C@H](OC)C2)CC(=O)[C@H](C)/C=C(\C)[C@@H](O)[C@@H](OC)C(=O)[C@H](C)C[C@H](C)/C=C/C=C/C=C/1C
half-life (human, whole blood; oral, 25 mg, without grapefruit juice): 30 h

Cc1cccc(C)c1N(CC(=O)Nc1ccc(-c2ncon2)cc1)C(=O)C1CCS(=O)(=O)CC1
half-life (human male, plasma; oral, 1200 mg single dose, arithmetic mean, alone): 7.3 h

CCOc1cc([C@@H](CS(C)(=O)=O)N2C(=O)c3cccc(NC(C)=O)c3C2=O)ccc1O[C@@H]1O[C@H](C(=O)O)[C@@H](O)[C@H](O)[C@H]1O
half-life (healthy human controls, plasma; oral, 30 mg apremilast, matched to mild impairment): 13.2 h

Nc1nc2c(c(=O)[nH]1)N(C=O)C(CNc1ccc(C(=O)N[C@@H](CCC(=O)O)C(=O)O)cc1)CN2 (stereo partly shown)
half-life (item: 5-formyltetrahydrofolate; human, plasma; intravenous, 214 nmol): 0.244 h and 0.33 h and 0.315 h and 0.305 h and 0.279 h

CCN1CCN(Cc2ccc(Nc3ncc(F)c(-c4cc(F)c5nc(C)n(C(C)C)c5c4)n3)nc2)CC1
half-life (population PK model; healthy human subjects, plasma; oral, 200 mg single dose): 25.5 h

C[C@@H]1CCC[C@H](n2cnc(-c3cc(Cl)ccc3-n3cc(Cl)nn3)cc2=O)c2cc(ccn2)-c2c(cnn2C(F)F)NC1=O
half-life (human, fasted; 200 mg once daily, day 14): 13.2 h

Cc1c(Cl)c(C)[n+]([O-])c(Cl)c1-c1noc(-c2cc(O)c(O)c([N+](=O)[O-])c2)n1
half-life (LC-MS/MS; healthy male human, fasted, plasma; oral, 25 mg single dose, capsule): 0.748 ± 0.19 h

CC[C@@H]1C(=O)N(C)c2cnc(Nc3ccc(C(=O)N[C@H]4CC[C@H](N5CCN(CC6CC6)CC5)CC4)cc3OC)nc2N1C(C)C
half-life (human, plasma; intravenous infusion, 250 mg over 2 h, first infusion, geometric mean): 136 h

CCCCCCCOc1ccc(CCC(N)(CO)CO)cc1C(F)(F)F.Cl
half-life (healthy male humans, plasma; oral, 0.125 to 0.75 mg, mean): 386 to 423 h

CC#CC(=O)NCCCC(=O)c1nc(-c2ccc(C(=O)Nc3ccccn3)cc2)c2c(N)nccn12
half-life (human, severe hepatic impairment, plasma; oral, 50 mg acalabrutinib, single, arithmetic mean): 11.9 ± 4.1 h

CN(C)C(=O)c1cc2cnc(Nc3ccc(N4CCNCC4)cn3)nc2n1C1CCCC1
half-life (human, mild renal impairment, plasma; oral, 400 mg, geometric mean): 40.9 h

O=C(c1cccnc1-c1ccncc1)N1CCC(O)(Cc2ccccc2)CC1
half-life (healthy human, plasma; oral, 400 mg once daily, day 14, arithmetic mean): 3.66 h

C[C@H](N)C(=O)N1C[C@H](CCCB(O)O)[C@](N)(C(=O)O)C1
half-life (human, plasma; oral, dose not given, cycle 1 day 15, multiple dosing, all doses pooled): 6.1 ± 1.6 h

CC(=O)c1c(C)c2cnc(Nc3ccc(N4CCNCC4)cn3)nc2n(C2CCCC2)c1=O
half-life (human; oral, 95 mg/m^2 single dose, day 1): 15.9 ± 7 h

Repeated from above:
CC[C@@H]1C(=O)N(C)c2cnc(Nc3ccc(C(=O)N[C@H]4CC[C@H](N5CCN(CC6CC6)CC5)CC4)cc3OC)nc2N1C(C)C
half-life (human, plasma; intravenous infusion, 250 mg over 2 h, first infusion, geometric mean): 136 h

CC#CC(=O)NCCCC(=O)c1nc(-c2ccc(C(=O)Nc3ccccn3)cc2)c2c(N)nccn12
half-life (human, severe hepatic impairment, plasma; oral, 50 mg acalabrutinib, single, arithmetic mean): 11.9 ± 4.1 h
